# Literature values, collected from citations in different studies.
# Each line is one published result; not all experiments were run side by side. ± gives the spread as reported.
# Cell line: HepG2
SMILES,test,system,quantity,result
CCC1=C(O)c2c(oc(-c3ccc(OC)c4ccccc34)cc2=O)C(CC)(CC)C1=O,"cell growth, SRB",,IC50,1.48 µM
C/C(=N\Nc1ccccc1)c1ccc(NC(=O)c2cccnc2)cc1,,,IC50,4.09 µM
O=C1NCC(Cc2ccccc2)N(CC2CCCN2CC(CC2CCCCC2)N2CC(Cc3ccc(O)cc3)N(CCc3ccccc3)C(=O)C2=O)C1=O (centres unmarked),cell viability,liver,IC50,> 100 µM
FC(F)(F)c1ccc(-c2nc3c(o2)c(C(F)(F)F)cc2cc[nH]c23)cc1,refers to: PCSK9 protein expression,,IC50,0.0297 µM
O=C(c1ccc(Br)cc1)[C@H]1[C@H](c2cn(-c3ccccc3)nc2-c2ccccc2)C2CC3CCCCC3N2[C@]12C(=O)Nc1ccc(Cl)cc12 (some centres unmarked),cell growth,,IC50,1.04 ± 0.21 µM
COc1cc([C@@H]2O[C@@H](c3cc(O)c(OC)c(OC)c3)[C@H](C)[C@H]2C)ccc1O,"mRNA level, down-regulation, refers to: PCSK9 mRNA",,IC50,3.15 µM
CCC1=C(O)c2c(oc(-c3cccc4ccccc34)cc2=O)C(CC)(CC)C1=O,"cell growth, SRB",,IC50,2.06 µM
CC(=NN=C1SCC(=O)N1Cc1cn(C2OCC(O)C(O)C2O)nn1)c1cccnc1 (centres unmarked),cell proliferation,,IC50,2.09 µM
CCC1=C(O)c2c(oc(-c3ccc4cc(OC)ccc4c3)cc2=O)C(CC)(CC)C1=O,"cell growth, SRB",,IC50,13.4 µM
C/C(=N\NC(=O)c1ccc([N+](=O)[O-])cc1)c1ccc(NC(=O)c2cccnc2)cc1,,,IC50,4.61 µM
O=C(Nc1cc2nc(-c3ccc(F)c(F)c3)cn2cn1)N1CC[C@H](F)C1,,,EC50,> 50 µM

# Repeated from above:
SMILES,test,system,quantity,result
O=C(Nc1cc2nc(-c3ccc(F)c(F)c3)cn2cn1)N1CC[C@H](F)C1,,,EC50,> 50 µM
